Results of several laboratories.
TEK: Angiopoietin-1 receptor (TEK, Homo sapiens, UniProt Q02763)
Chain of UniProt Q02763 (whole entry, unmodified, looked up): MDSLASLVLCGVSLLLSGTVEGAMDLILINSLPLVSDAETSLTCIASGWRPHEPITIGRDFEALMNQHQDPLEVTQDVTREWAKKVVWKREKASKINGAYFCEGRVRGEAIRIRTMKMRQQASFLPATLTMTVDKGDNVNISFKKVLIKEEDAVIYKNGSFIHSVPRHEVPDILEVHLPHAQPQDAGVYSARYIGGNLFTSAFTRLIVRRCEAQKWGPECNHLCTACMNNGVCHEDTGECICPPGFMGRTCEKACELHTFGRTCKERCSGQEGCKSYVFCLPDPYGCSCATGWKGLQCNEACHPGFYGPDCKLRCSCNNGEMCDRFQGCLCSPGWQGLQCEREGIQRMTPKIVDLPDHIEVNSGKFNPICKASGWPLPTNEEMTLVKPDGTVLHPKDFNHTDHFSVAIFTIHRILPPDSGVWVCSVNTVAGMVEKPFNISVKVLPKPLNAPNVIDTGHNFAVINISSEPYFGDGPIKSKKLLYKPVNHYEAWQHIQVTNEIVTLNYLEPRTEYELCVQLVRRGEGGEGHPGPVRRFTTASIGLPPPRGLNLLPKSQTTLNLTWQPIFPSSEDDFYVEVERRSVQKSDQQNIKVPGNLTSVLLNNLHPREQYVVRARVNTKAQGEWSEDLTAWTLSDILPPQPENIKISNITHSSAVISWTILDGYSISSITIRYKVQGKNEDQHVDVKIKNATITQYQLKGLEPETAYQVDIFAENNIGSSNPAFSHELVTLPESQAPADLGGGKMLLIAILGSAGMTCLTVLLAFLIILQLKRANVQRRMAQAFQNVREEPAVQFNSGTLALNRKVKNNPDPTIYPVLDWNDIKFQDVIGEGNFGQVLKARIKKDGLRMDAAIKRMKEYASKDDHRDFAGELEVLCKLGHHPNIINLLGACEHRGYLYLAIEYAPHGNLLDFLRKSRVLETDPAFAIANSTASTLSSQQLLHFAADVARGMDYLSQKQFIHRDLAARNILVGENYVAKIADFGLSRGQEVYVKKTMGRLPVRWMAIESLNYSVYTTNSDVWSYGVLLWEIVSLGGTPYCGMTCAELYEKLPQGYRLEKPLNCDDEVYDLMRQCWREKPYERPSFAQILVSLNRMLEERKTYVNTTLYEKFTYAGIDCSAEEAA
TEK Y897S: Angiopoietin-1 receptor (TEK, Homo sapiens, UniProt Q02763, Y897S)

With C[C@H](NCc1ccc(-c2ccc(C(F)(F)F)cc2)cc1)C(N)=O the inhibition was 5% (TEK; cell-free assay, competition with immobilised ligand; 1 µM).
O=C1NC(=O)c2c1c1cc(F)c[n+]3c1c1c2c2cc(O)ccc2[n]1[Ru-4]312([N]=C=S)[S+]3CC[S+]1CC[S+]2CC3 (centres unmarked) has a remaining activity of 100% (TEK Y897S; enzyme activity; 100 nM, human enzyme, added: 10 µM ATP; baseline: untreated).
For Nc1ccc(/C=C/C(=O)N2CCc3c(oc4c(-c5ccc(F)cc5)cc(-c5ccc(C(=O)N6CCC(F)(F)CC6)cn5)cc34)C2)cn1, the remaining binding was 81% (TEK; binding, competition with immobilised ligand; 1 µM).
CCn1nc(Cl)c2c1-c1cnc(N)c(c1)O[C@H](C)c1cc(F)ccc1-c1nn(C)cc1C2 gave a selectivity ratio of 162 fold (TEK; kinase activity, inhibitor; baseline: IC50 TEK over IC50 ALK).
For CS(C)(=O)=Nc1ccc(-c2ccc(-c3nc4cc(O[C@@H]5CO[C@H]6[C@@H]5OC[C@H]6O)[nH]c4cc3F)cc2)cc1, the inhibition was -24% (TEK Y897S; enzyme activity, inhibitor; 10 µM).
The inhibition of N[C@H](C(=O)N1CCCC1)C1CCN(c2nccc3c(-c4ncc(Cl)cc4Cl)cccc23)CC1 is reported as 7.1% (TEK; kinase activity, inhibitor; 10 µM, added: ATP 1 mM).
For CC(C)[C@H]1NC(=O)C[C@H]2/C=C/CCSSC[C@@H](NC1=O)C(=O)N[C@H](Cc1cccc3ccccc13)C(=O)NCC(=O)O2, the inhibition was 7.7% (TEK; enzyme activity, inhibitor; 10 µM).
For CCOC(=O)[C@@H]1Cc2c(cc([N+](=O)[O-])cc2[N+](=O)[O-])[C@H](O)[C@]12C(=O)Nc1ccc(Br)cc12, the remaining binding was 98% (TEK; binding, competition with immobilised ligand; 0.1 µM).

For quick reference, copied from above:
The inhibition of N[C@H](C(=O)N1CCCC1)C1CCN(c2nccc3c(-c4ncc(Cl)cc4Cl)cccc23)CC1 is reported as 7.1% (TEK; kinase activity, inhibitor; 10 µM, added: ATP 1 mM).
